# Measured values pooled from the literature.
# Lines come from different studies, so protocols differ. ± gives the spread as reported.
# B1: enzyme Y161A (Streptomyces parvus, UniProt A0A7K3RVR3); chain MYVPEQYRPRDASWTLELIRSNPLALLVTNGPQHPWATHVPVLFAEEPDGPEGPDGLDATGDDLVGRRLLGHLNLMNPHWEALAGAGHALLVFQGPGSYVSPTVYETAPAAPTWDFTSVHVHGALRLIDDPDDLRKIVQATVRAYEREVGTDWDMSESLEAFERLLPGVRGFEIKIESVDSMFKLSQEQLPETVTKVIDSFRRSDGGRRQELATMIERAASD
# B2: enzyme Y7A (Streptomyces parvus, UniProt A0A7K3RVR3); chain MYVPEQARPRDASWTLELIRSNPLALLVTNGPQHPWATHVPVLFAEEPDGPEGPDGLDATGDDLVGRRLLGHLNLMNPHWEALAGAGHALLVFQGPGSYVSPTVYETAPAAPTWDFTSVHVHGALRLIDDPDDLRKIVQATVRAYEREVGTDWDMSESLEYFERLLPGVRGFEIKIESVDSMFKLSQEQLPETVTKVIDSFRRSDGGRRQELATMIERAASD
Substance,target or system,assay,test system,conditions,scale,measurement,result
C[C@@H](O)[C@@H]1NC(=O)[C@@H](NC(=O)CCOCCOCCOCCOCCNC(=O)c2ccc(NN)nc2)CSSC[C@@H](C(=O)O)NC(=O)[C@H](Cc2c[nH]cn2)NC(=O)[C@H](CO)NC(=O)[C@H](Cc2ccccc2)NC(=O)[C@@H]2CCCN2C(=O)[C@H](CO)NC(=O)[C@@H]2CCCN2C1=O [technetium-99m labelled],,,"mouse, HCT-116 xenograft, kidney","intravenous, 37 MBq, postmortem after imaging",,tissue uptake,2.75 ± 0.74 %ID/g
B1 (enzyme Y161A),N[C@@H](CCCNO)C(=O)O,steady-state kinetics,,"pH 8, 25 °C, with: heme",,Km,7.43 mM
N=C(N)NCCC[C@@H]1NC(=O)[C@H](CCCCNC(=O)CCC(NC(=S)Nc2ccc(CC3CN(CC(=O)O)CCN(CC(=O)O)CCN(CC(=O)O)CCN3CC(=O)O)cc2)C(=O)NCCCC[C@@H]2NC(=O)[C@@H](Cc3ccc(O)cc3)NC(=O)[C@H](CC(=O)O)NC(=O)CNC(=O)[C@H](CCCNC(=N)N)NC2=O)NC(=O)[C@@H](Cc2ccc(O)cc2)NC(=O)[C@H](CC(=O)O)NC(=O)CNC1=O (stereo partly shown) [scandium-44 labelled],,PET imaging,"female athymic nude mouse, liver","intravenous, 2 h, U-87 MG xenograft, with: cRGD 50 mg/kg blocking",,tissue uptake,0.11 ± 0.02 %ID/g
"enzyme (Vitis vinifera, UniProt D7T1P6)",O=[N+]([O-])O,steady-state kinetics,,"pH 5.5, not purified",,Km,66.7 mM
CC[C@H](C)[C@H](NC(=O)[C@H](CO)NC(=O)[C@H](Cc1ccc(O)cc1)NC(=O)[C@H](Cc1ccc(O)cc1)NC(=O)[C@H](CC(N)=O)NC(=O)CNC(=O)[C@H](CO)NC(=O)[C@H](Cc1ccc(O)cc1)NC(=O)[C@H](CO)NC(=O)[C@H](CO)NC(=O)[C@H](CC(N)=O)NC(=O)COCCOCCNC(=O)CN1CCN(CC(=O)O)CCN(CC(=O)O)CCN(CC(=O)O)CC1)C(=O)N[C@@H](CC(C)C)C(N)=O [copper-64 labelled],,dynamic PET,"KPC mouse Ptf1a-CreER tdTomato, metastases","intravenous, dose not given, 4.5 min, 84 d after tamoxifen",,tissue uptake,15.7 %ID/mL
CC(C)C[C@@H]1NC(=O)[C@H](CC(=O)O)NC(=O)CNC(=O)[C@H](CCCNC(=N)N)NC(=O)[C@H](Cc2ccccc2)NC(=O)[C@H](CCCCNC(=O)CCc2cn(CCCNC(=O)CCC(C(=O)O)N3CCN(CC(=O)O)CCN(CC(=O)O)CCN(CC(=O)O)CC3)nn2)N(C)C(=O)[C@H]2CCCN2C(=O)[C@H](Cc2ccccc2)NC(=O)[C@H](C)NC1=O (stereo partly shown),,,"female CB17 SCID mice, tumour and heart","intravenous, dose not given, 90 min, 177Lu-labelled",relative to: tumour over heart,tissue-to-tissue ratio,10.5 ± 2.6
CN[C@H](CC(C)C)C(=O)N[C@H]1C(=O)N[C@@H](CC(N)=O)C(=O)N[C@H]2C(=O)N[C@H]3C(=O)N[C@H](C(=O)N[C@H](C(=O)N[C@@H](CCCNC(=N)N)C(N)=O)c4cc(O)cc(O)c4-c4cc3ccc4O)[C@H](O)c3ccc(c(Cl)c3)Oc3cc2cc(c3O[C@@H]2O[C@H](CO)[C@@H](O)[C@H](O)[C@H]2O[C@H]2C[C@](C)(NCc3ccc(OCc4cn(CC(=O)N[C@H](C(=O)N[C@@H](CCN)C(=O)N[C@H]5CCNC(=O)[C@H]([C@@H](C)O)NC(=O)[C@H](CCN)NC(=O)[C@H](CCN)NC(=O)[C@H](CC(C)C)NC(=O)[C@@H](CC(C)C)NC(=O)[C@H](CCN)NC5=O)[C@@H](C)O)nn4)c(OC)c3)[C@H](O)[C@H](C)O2)Oc2ccc(cc2Cl)[C@H]1O,sheep erythrocytes,,,"512 µg/mL, 37 °C",relative to: Triton X-100,hemolysis,< 5%
B2 (enzyme Y7A),N[C@@H](CCCNO)C(=O)O,steady-state kinetics,,"pH 8, 25 °C, with: heme",,Km,3.62 mM
CC(C)C[C@@H]1NC(=O)[C@H](CC(=O)O)NC(=O)CNC(=O)[C@H](CCCNC(=N)N)NC(=O)[C@H](Cc2ccccc2)NC(=O)[C@H](CCCCNC(=O)CCc2cn(CCCNC(=O)CN3CCN(CC(=O)O)CCN(CC(=O)O)CCN(CC(=O)O)CC3)nn2)N(C)C(=O)[C@H]2CCCN2C(=O)[C@H](Cc2ccccc2)NC(=O)[C@H](C)NC1=O,,,"female CB17 SCID mice, tumour and heart","intravenous, dose not given, 90 min, 177Lu-labelled",relative to: tumour over heart,tissue-to-tissue ratio,5.6 ± 3.9
CCCC[C@H](NC(=O)[C@H](CCC(=O)O)NC(=O)[C@H](CCCCN)NC(=O)[C@H](CO)NC(=O)[C@H](Cc1ccccc1)NC(C)=O)C(=O)N[C@@H](CCCNC(=N)N)C(=O)N[C@@H](CC(N)=O)C(=O)N[C@@H](CCCNC(=N)N)C(=O)N[C@@H](Cc1ccc(O)cc1)C(=O)N[C@@H](Cc1c[nH]c2ccccc12)C(=O)N[C@@H](CCCC(=O)NCCN(CC(=O)NCCN(CC(=O)NCCN(CC(=O)NCCN(CC(N)=O)C(=O)Cn1cnc2c(=O)[nH]c(N)nc21)C(=O)Cn1ccc(N)nc1=O)C(=O)Cn1ccc(N)nc1=O)C(=O)Cn1cnc2c(=O)[nH]c(N)nc21)C(=O)N[C@@H](CS)C(=O)N[C@@H](C)C(=O)N[C@@H](CC(C)C)C(=O)N[C@@H](CC(=O)O)C(=O)N1CCC[C@H]1C(=O)N[C@@H](CC(N)=O)C(=O)N[C@@H](CC(C)C)C(=O)N[C@H](C(=O)N[C@@H](CC(N)=O)C(=O)N[C@@H](CCC(N)=O)C(=O)N[C@@H](CCC(N)=O)C(=O)N[C@@H](CCCCN)C(=O)N[C@@H](CCCNC(=N)N)C(=O)N[C@@H](C)C(=O)N[C@@H](CCCCNC(=O)CN(CCNC(=O)CN(CCNC(=O)CN(CCNC(=O)CN(CCNC(=O)[C@H](CCCNC(=N)N)NC(=O)CCCN(C)C(=O)c1ccccc1-c1c2ccc(=N)cc-2oc2cc(N)ccc12)C(=O)Cn1ccc(N)nc1=O)C(=O)Cn1cnc2c(=O)[nH]c(N)nc21)C(=O)Cn1cnc2c(=O)[nH]c(N)nc21)C(=O)Cn1ccc(N)nc1=O)C(=O)N[C@H](C(=O)N[C@@H](CCCNC(=N)N)C(=O)N[C@@H](CO)C(=O)N[C@H](C(=O)N[C@@H](Cc1ccc(O)cc1)C(=O)N[C@@H](CCC(=O)O)C(=O)N[C@@H](CCC(=O)O)C(N)=O)[C@@H](C)CC)[C@@H](C)CC)[C@@H](C)O,trypsin,"degradation of compound, LC-MS",,"40 µM, pH 7.5, 37 °C, 10% DMF, with: trypsin 12.5 ng/mL",,half-life,6.15 ± 1.02 h

# Repeated from above:
Substance,target or system,assay,test system,conditions,scale,measurement,result
B2 (enzyme Y7A),N[C@@H](CCCNO)C(=O)O,steady-state kinetics,,"pH 8, 25 °C, with: heme",,Km,3.62 mM
